# Experimental data from different studies.
# Numbered parts are unrelated; each lists some results of a single study.
# Chain of UniProt Q9C0B0 (30-357, looked up): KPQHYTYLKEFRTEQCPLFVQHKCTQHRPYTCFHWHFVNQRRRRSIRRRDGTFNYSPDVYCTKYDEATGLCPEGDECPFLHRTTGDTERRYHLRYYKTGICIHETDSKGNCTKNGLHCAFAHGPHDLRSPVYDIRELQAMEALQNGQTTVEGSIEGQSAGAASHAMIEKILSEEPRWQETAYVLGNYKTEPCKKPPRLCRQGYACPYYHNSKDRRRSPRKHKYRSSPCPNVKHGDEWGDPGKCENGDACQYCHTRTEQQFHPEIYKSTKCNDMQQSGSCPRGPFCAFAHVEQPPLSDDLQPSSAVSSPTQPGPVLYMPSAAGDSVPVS

# Sample 1
# Target: Centromere-binding protein 1, full length, His-tagged (CBF1, Saccharomyces cerevisiae, UniProt P17106, residues 1-351)
# Chain of UniProt P17106 (whole entry, looked up): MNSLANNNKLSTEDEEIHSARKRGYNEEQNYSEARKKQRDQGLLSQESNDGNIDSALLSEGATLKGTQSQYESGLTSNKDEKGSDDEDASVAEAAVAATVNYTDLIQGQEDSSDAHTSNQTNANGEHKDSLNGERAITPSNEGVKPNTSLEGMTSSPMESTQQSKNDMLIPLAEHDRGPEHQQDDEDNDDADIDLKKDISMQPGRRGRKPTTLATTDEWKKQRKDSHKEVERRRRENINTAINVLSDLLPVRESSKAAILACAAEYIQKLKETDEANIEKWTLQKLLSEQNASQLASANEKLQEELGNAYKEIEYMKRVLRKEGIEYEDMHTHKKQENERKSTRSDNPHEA
# Technique: competition protein-binding microarray
# Molecule type: double-stranded DNA, one strand shown
# Matrix: in vitro
# Tested at: 2 µM
# Notes: whole 60-bp probe, lowest competitor level
# Together with: Pho4 competitor, 0.05 µM
# Direction: higher = stronger binding
# Constant ends, left off below: … GTCTTGATTCGCTTGACGCTGCTG
Oligonucleotide,fluorescence intensity [a.u.]
CTTTCCCGATCTTGTTCGGTGGGTGTAGCACATTTG,66.3
GCATACACATACACATTCGTGCAAACATTCATTTAT,96.1
CGGGGTTAAGTTTGTCACATGACTTGCTTGCAGCAG,1870
CTCAATGGAATCCGTCATGCTCGGTAAGTGAGTCTC,61.3
CGGGCTTGTCTCAGGCTCGTGTGGACCGCACTGTAA,51.1
CTGTTACTTACACTGAACACGCCAAGAGAAAGACTG,85.4
CTTTCCCGATCTTGTCGGGTGGGTGTAGCACATTTG,61.3
AAATCTGTCAGCTTGCACACGCCTTCCGGGGATAGC,71.1
AAGAGACAAAAGGAACACGTGAAATAAGAAAGAAAA,1560
TCCATTCTCTACGGCCACGCTGAAACACGAATCATC,88.6
CATACCCAACCTTGTCTGGTGGGTGAAGATATTTGT,72.2
GCTGGAAGATAGCTTCACGTGGAACATTCCTGACTG,540
AAAGCGGTAATTTGCTGGGTGGGTGCAGATATCTAT,69.3
CCGCGAGTTCGTAGGCACGTTAGTTGGTTTCGACGA,71.1
TGCGCAACAACTTGCTCAGTGGGTGTATGTCTAGAA,73
GCGCTTGTCGCTCGGCACGATGCCAGTGCGGAGTTT,70
CTTTCCCGATCTTGGGGTGTGGGTGTAGCACATTTG,57.4
CTAACGAAGGTTTGTCACAAAACTTACAAGCCAAGT,77.4
CGGGGTTAAGTTTGCTTTGTGGGTGGCTTGCAGCAG,79.3

# Sample 2
# Target: Ras GTPase-activating protein-binding protein 1, full length (G3BP1, Homo sapiens, UniProt Q13283)
# Chain of UniProt Q13283 (whole entry, looked up): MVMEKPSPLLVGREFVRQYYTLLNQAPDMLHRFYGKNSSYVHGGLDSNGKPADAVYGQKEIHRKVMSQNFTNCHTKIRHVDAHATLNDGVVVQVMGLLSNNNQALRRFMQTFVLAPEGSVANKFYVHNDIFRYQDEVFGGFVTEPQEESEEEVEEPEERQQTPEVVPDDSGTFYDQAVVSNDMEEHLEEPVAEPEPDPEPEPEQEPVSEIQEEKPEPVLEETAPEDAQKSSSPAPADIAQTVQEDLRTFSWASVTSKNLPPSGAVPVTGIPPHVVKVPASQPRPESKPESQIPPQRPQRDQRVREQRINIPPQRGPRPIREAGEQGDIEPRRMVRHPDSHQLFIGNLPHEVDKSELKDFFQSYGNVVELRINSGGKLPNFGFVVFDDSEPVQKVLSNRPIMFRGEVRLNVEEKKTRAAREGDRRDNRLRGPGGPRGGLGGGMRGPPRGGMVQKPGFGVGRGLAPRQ
# Technique: RNA Bind-n-Seq
# Molecule type: RNA
# Matrix: in vitro
# Tested at: 200 nM
# Notes: whole 134-nt RNA, ends assumed
# Together with: 150 mM LiCl
# Relative to: input library
# Direction: higher = stronger binding
# All molecules: 7-deaza-guanosine replaces G
# Constant ends, left off below: GGGAGUUCUACAGUCCGACGAUC … UGGAAUUCUCGGGUGUCAAGG
Oligonucleotide,log2 enrichment
ACCAUGCAGGUGGGCAUCUUUGGGAGGUGGGGCAAGGGGGGGAUAGGGAGGGGGGUAACACUUUGGGAACAGGUGGUCCCAGGUCGUUUC,-0.201
UAACUGUAGAGGAGGAUCUGAUGGAUAUGGCAGUGGACGUGGAUUUGGGGAUGGCUAUAAUGGGUAUGGAGGAGGACCUGGAGGUGGCAA,0.239
CCUCAAGUCCUGUGCUACACAUCGUAUGUACCGAAUCGGAAGGAAGGGGAAGGAAAGUAUUAUGUUACGCCGUUCGGAUCUGCACUUCCA,-0.476
UUAGGGCCAAUCUUCGUCAAUAUGGUUUAGAGAAGUAUUACCUUGAUGUCCUGGUUUCAGAUGCAUCUAAACCUUCCUGGAGGAAGGGCA,-1.25
CACAGACAACACGCACCCACACAGACACAGAGGGAAGGGGUUGGGAUGGGGACAGGGUGCACAGCAGGGCGGGGUAGGCCCCCAGCCCCU,0.754
CAAGUCCUGUGCUACACAUCGUAUGUACCGAAUCGGGGAAAGGAAAGGGGAAAGGGAAAGUAUUAUGUUACGCCGUUCGGAUCUGCACUU,-0.634
CAAGUCCUGUGCUACACAUCGUAUGUACCGAAUCGGUGGAAAAAAAGGUUUUUGGAAAGUAUUAUGUUACGCCGUUCGGAUCUGCACUUC,-1.51
ACCAUGCAGGUGGGCAUCUUUGGGAAGUGGGGCAAGGGGGGGAUAAAAAGGGGGGUAACACUUUGGGAACAGGUGGUCCCAGGUCGUUUC,0.375

# Sample 3
# Target: Interferon regulatory factor 3, full length, phosphomimetic (IRF3, Homo sapiens, UniProt Q14653, residues 1-427, S386D/S396D/S398D/S402D/T404D/S405D)
# Technique: protein-binding microarray
# Molecule type: double-stranded DNA, one strand shown
# Matrix: in vitro
# Tested at: 2540 nM top
# Notes: 60-bp whole probe
# Together with: salmon DNA 0.4 mg/ml
# Relative to: random background probes
# Direction: higher = stronger binding
# Constant ends, left off below: GCCTAGCAC … GTCTTGATTCGCTTGACGCTGCTG
# Residues (chain): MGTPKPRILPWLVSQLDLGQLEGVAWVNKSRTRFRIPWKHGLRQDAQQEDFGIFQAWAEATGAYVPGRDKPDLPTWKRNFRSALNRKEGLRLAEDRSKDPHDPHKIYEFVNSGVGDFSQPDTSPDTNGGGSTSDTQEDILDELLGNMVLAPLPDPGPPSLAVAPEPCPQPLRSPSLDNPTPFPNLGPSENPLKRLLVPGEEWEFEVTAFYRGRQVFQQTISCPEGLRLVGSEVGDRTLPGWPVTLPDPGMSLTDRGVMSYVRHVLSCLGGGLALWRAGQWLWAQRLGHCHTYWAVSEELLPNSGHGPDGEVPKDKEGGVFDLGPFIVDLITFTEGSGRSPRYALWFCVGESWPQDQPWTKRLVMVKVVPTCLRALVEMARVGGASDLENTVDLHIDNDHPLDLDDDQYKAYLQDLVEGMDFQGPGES
Oligonucleotide,fitted relative affinity [z-score]
TGCACTCTTTACATGGGTTTGTGCTAG,0.391
TTGGAACTGAGTTTCGATTAGTGCTAG,2.29
GACGGGCTCCTTATCCTGACGTGCTAG,0.77
ATAGAACTGGGGACTGGATTAGTGCTA,-0.722
TCAATTTTTTTTTTCATACTGTGCTAG,0.906
TCAAGTTTTGAGCTCTGACTGTGCTAG,-0.233
AAGGGTCTCTTGTTCTCTCTGTGCTAG,-0.48
TTAGATCTCAGACTGGATTAGTGCTAG,0.0878
GACGGAGTGGACTTTCGGGACGTGCTA,0.172
GGCGGTTTCCTTATCCTGACGTGCTAG,7.82
TTAGATCTCAGTTTCGATTCGTGCTAG,5.08
TTAGCTTTCGGGTTTCGGTTAGTGCTA,4.21
GACGAACTGAGGTATCGAGACGTGCTA,-0.0542
TTAGGTTTTCTTTTCCTTTAGTGCTAG,5.39
TTAGATTTCAGACTGGATCAGTGCTAG,0.67
CACGATATCAGTCTCGAGACGTGCTAG,1.01
AGTTCTAAGGATTTCAGTTTGTGCTAG,0.752
TTAGGTATCGGGTTGCGGTTAGTGCTA,1.75
TCATGTTTCTCAAATGTTACTGTGCTA,0.84

# Further values, each from its own experiment
Oligonucleotide,target,assay,test system,conditions,scale,quantity,result
GGGAGUUCUACAGUCCGACGAUCUCCUCAACUUGUUCCCGCUUGUGAUCCCUCAAAGUUGGGUCAUACGUCCGUGCCCGAUACCCGAAAUUUUCACUUUUCCACUGAUCAGAGAGACAGACAUUAAAAACAAAAACCGAAGAACAACAGAGGAUUGAGCAUCA,"RING finger protein unkempt homolog, zinc fingers 1-6, SBP tag (UNK, Homo sapiens, UniProt Q9C0B0, residues 30-357)",RNA Bind-n-Seq,"RNA, in vitro","100 nM, RNA with constant flanks, ends assumed","relative to: input RNA pool, higher = stronger binding",bound/input enrichment,0.276 ratio

# Repeated from above (sample 3):
Oligonucleotide,fitted relative affinity [z-score]
TCAAGTTTTGAGCTCTGACTGTGCTAG,-0.233
TTAGCTTTCGGGTTTCGGTTAGTGCTA,4.21
GGCGGTTTCCTTATCCTGACGTGCTAG,7.82
TTAGGTATCGGGTTGCGGTTAGTGCTA,1.75
TTAGATTTCAGACTGGATCAGTGCTAG,0.67
TTAGGTTTTCTTTTCCTTTAGTGCTAG,5.39
CACGATATCAGTCTCGAGACGTGCTAG,1.01
